Results of several laboratories.
Parts stem from different laboratories: compare values within a part only. Changes are numbered by the printed parent chain.

Set 1
Target: TAR DNA-binding protein 43, full length, His tag (TARDBP, Homo sapiens, UniProt Q13148, residues 1-414)
Method: RNA Bind-n-Seq
Form: RNA
Matrix: in vitro
Tested at: 20 nM
Setting: 6-mer, flanks averaged, single round
Together with: 150 mM LiCl
Relative to: input library
Direction: higher = stronger binding
`GUCCGG`: “6-mer enrichment (R)” 0.991.
`GUUAGA`: “6-mer enrichment (R)” 0.991.
Under “6-mer enrichment (R)”, `CUGACA` is recorded as 0.883.
`CGAUUU` — result for “6-mer enrichment (R)”: 0.904.
Under “6-mer enrichment (R)”, `CAAAAG` is recorded as 0.832.
For `CAAUGG`, “6-mer enrichment (R)” read 0.93.
`UUGUGU`: “6-mer enrichment (R)” 1.9.
`UCGGAU` — result for “6-mer enrichment (R)”: 0.95.

Set 2
Target: Ras GTPase-activating protein-binding protein 1, full length (G3BP1, Homo sapiens, UniProt Q13283)
Sequence of UniProt Q13283 (whole entry, looked up): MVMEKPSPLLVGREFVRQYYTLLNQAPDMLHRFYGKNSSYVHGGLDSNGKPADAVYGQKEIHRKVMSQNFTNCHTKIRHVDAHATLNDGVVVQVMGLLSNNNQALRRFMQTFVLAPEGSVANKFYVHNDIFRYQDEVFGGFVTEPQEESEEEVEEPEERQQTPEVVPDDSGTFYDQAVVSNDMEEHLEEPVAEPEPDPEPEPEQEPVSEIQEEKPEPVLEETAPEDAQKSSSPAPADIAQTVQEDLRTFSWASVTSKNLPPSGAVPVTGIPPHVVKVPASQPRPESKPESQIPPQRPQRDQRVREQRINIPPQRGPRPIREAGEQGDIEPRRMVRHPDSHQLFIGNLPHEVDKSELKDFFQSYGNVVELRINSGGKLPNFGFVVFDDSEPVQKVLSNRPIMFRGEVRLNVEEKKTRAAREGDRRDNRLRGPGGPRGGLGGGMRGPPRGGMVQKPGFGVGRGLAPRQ
Method: RNA Bind-n-Seq
Form: RNA
Matrix: in vitro
Tested at: 200 nM
Setting: whole 134-nt RNA, ends assumed
Together with: 150 mM KCl
Relative to: input library
Direction: higher = stronger binding
For `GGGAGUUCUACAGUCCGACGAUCUUCAGUUAUUCAAGCGGAGAAAUGUUGCUACAGCAGAAGAAGAAACAGAAGAAGAAGUUAUGUCAGAUGGAGGCUUUCAUGAGGCUCAGAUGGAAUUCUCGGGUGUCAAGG`, the log2 enrichment was -1.76.
The log2 enrichment of `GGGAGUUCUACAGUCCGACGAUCGCAGGAAGUAAAAACAAAUGGAAAUGCUUCGGAUAGUGGCAGGGGUGGGGGUUGCUAAGGAAAGGGUGGGAUGGGAGUGGGUAGAGAGUUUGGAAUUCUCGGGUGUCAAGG` is reported as 1.24.
The log2 enrichment of `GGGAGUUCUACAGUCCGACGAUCGCAGGAAGUAAAAACAAAUGGAAAUGCUUCGGAUAGUGGCAGGGGUGGGGGUUGAAAAGGAAAGGGUGGGAUGGGAGUGGGUAAAGAGUUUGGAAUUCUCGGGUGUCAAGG` is reported as 1.31.
For `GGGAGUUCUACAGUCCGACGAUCAGUCCUGUGCUACACAUCGUAUGUACCGAAUCAAACCCCCAAAUUUUUAAAUUUAAAAAAGUAUUAUGUUACGCCGUUCGGAUCUGCACUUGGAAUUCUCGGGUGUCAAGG`, the log2 enrichment was -0.134.
The log2 enrichment of `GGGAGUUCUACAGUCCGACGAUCUGGGAGGUGGAUUUUGUUUAUUUUUUUAGCUCAUUUCCAGGGGUGGGAAUUUUUUUUUAAUAUGUGUCAUGAAUAUAGUUGUUUUUGAAAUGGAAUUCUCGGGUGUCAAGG` is reported as 0.219.
For `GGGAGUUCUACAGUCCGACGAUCUGGCCCUGGUGGCAUGCGGGGAGGAAGAGGUUGCCUCAUGGAUCGUGGUGGUCCCGGUGGAAUGUUCAGAGGUGGCCGUGGUGGAGACAGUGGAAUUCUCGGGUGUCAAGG`, the log2 enrichment was 0.0387.
The log2 enrichment of `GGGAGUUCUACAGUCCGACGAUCUCAAGUCCUGUGCUACACAUCGUAUGUACCGAAUCGGUUUGGUGGUUUUUUUGGAAAGUAUUAUGUUACGCCGUUCGGAUCUGCACUUCCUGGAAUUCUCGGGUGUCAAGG` is reported as -0.817.
For `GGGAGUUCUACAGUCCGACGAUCACAAGUGGAGGAGAAGAACUUAGAAGAACUAGAGGAGAAAUCUACUACUCCUCCUCCGGCAGAACCUGUUUCUCUGCCACAAGAACCACCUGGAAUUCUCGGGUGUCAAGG`, the log2 enrichment was -0.509.

Other studies, line by line
HLA class I histocompatibility antigen, A alpha chain allele A*80:01: HLA class I histocompatibility antigen, A alpha chain, allele A*80:01 (Homo sapiens, UniProt P04439)
P1: viral docking peptide; KGVKRKLFAEDSS; partner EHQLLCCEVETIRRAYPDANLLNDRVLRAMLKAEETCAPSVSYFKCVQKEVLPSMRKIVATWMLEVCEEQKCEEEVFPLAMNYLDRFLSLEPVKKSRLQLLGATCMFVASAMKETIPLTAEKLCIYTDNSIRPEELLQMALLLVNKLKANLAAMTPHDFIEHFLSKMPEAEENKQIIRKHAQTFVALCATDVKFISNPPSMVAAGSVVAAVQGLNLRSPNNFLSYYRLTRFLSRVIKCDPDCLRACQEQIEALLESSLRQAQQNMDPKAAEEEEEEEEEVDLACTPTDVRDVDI
`PTPRB (Homo sapiens, UniProt P23467)` — result for cross-linked residues: “S305 to K55” (RAB13 (Homo sapiens, UniProt P51153); cross-linking MS; cell fractions; together with: DSSO).
For `FRDEAGAIL`, binding read “inactive” (HLA class I histocompatibility antigen, A alpha chain allele A*80:01; peptide-MHC binding; peptide; concentration not given).
`GPAT3 (Homo sapiens, UniProt Q53EU6)`: interaction screen “cross-linked” (CHP1 (Homo sapiens, UniProt Q99653); cross-linking MS; hits only).
`FKYDSTKPL` — result for binding: “inactive” (HLA class I histocompatibility antigen, A alpha chain allele A*80:01; peptide-MHC binding; peptide; concentration not given).
`SF3B2 (Homo sapiens, UniProt Q13435)`: cross-linked residues “K486 to K106” (TRIR (Homo sapiens, UniProt Q9BQ61); cross-linking MS; cell fractions; together with: DSSO).
For `P1 L7P`, “normalised enrichment score” read -0.158 (CCND1, cyclin fold, Cln2 fusion (human); yeast growth competition, sequencing; yeast; strong parent motif; relative to: not given, higher = stronger binding).
`NOP9 (Homo sapiens, UniProt Q86U38)`: cross-linked residues “K611 to K481” (RBM19 (Homo sapiens, UniProt Q9Y4C8); cross-linking MS; cell fractions; together with: DSSO).

Repeated from above (set 2):
The log2 enrichment of `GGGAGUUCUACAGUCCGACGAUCGCAGGAAGUAAAAACAAAUGGAAAUGCUUCGGAUAGUGGCAGGGGUGGGGGUUGCUAAGGAAAGGGUGGGAUGGGAGUGGGUAGAGAGUUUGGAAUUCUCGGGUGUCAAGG` is reported as 1.24.
The log2 enrichment of `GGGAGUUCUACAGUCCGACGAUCGCAGGAAGUAAAAACAAAUGGAAAUGCUUCGGAUAGUGGCAGGGGUGGGGGUUGAAAAGGAAAGGGUGGGAUGGGAGUGGGUAAAGAGUUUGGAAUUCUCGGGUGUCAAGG` is reported as 1.31.
